Measured values pooled from the literature.
Each line is one published result; not all experiments were run side by side. Numbers after ± are the reported error.
B1: SULT2A1 (Homo sapiens, UniProt Q06520); chain MSDDFLWFEGIAFPTMGFRSETLRKVRDEFVIRDEDVIILTYPKSGTNWLAEILCLMHSKGDAKWIQSVPIWERSPWVESEIGYTALSETESPRLFSSHLPIQLFPKSFFSSKAKVIYLMRNPRDVLVSGYFFWKNMKFIKKPKSWEEYFEWFCQGTVLYGSWFDHIHGWMPMREEKNFLLLSYEELKQDTGRTIEKICQFLGKTLEPEELNLILKNSSFQSMKENKMSNYSLLSVDYVVDKAQLLRKGVSGDWKNHFTVAQAEDFDKLFQEKMADLPRELFPWE
Chain of UniProt P21729 (whole entry, looked up): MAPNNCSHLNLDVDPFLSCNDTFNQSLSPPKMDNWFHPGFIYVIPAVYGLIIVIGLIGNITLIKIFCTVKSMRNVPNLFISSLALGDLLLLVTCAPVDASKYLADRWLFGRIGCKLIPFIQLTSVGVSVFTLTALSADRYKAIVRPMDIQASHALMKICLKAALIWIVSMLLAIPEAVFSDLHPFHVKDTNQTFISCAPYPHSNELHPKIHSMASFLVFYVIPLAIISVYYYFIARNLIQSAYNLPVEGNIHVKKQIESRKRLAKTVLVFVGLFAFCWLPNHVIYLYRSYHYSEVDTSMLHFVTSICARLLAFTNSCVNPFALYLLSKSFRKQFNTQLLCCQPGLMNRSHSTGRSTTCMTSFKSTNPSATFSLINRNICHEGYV

With `CC(C)(C)n1cc(CN(Cc2cn(CCOCCOCCOCCOCCOCCOCCC(=O)N[C@@H](CCCNC(=N)N)C(=O)N[C@@H](CCCCN)C(=O)N[C@@H](CCCCN)C(=O)N[C@@H](CCCNC(=N)N)C(=O)N[C@@H](CCCNC(=N)N)C(=O)N[C@@H](CCC(N)=O)C(=O)N[C@@H](CCCNC(=N)N)C(=O)N[C@@H](CCCNC(=N)N)C(=O)N[C@@H](CCCNC(=N)N)C(N)=O)nn2)Cc2cn(C(C)(C)C)nn2)nn1` the viability was 75% (OVCAR-5; 200 µM, 10 min, after CuAAC reaction).
For `N=C(N)NCCC[C@@H]1NC(=O)[C@H](CCCCNC(=O)CC[C@H](NC(=O)CCOCCOCCOCCOCCNC(=O)CC[C@H](NC(=O)CN2CCN(CC(=O)O)CCN(CC(=O)O)CCN(CC(=O)O)CC2)C(=O)NCCOCCOCCOCCOCCC(=O)N[C@@H](CCC(=O)NCCCC[C@@H]2NC(=O)[C@@H](Cc3ccccc3)NC(=O)[C@H](CC(=O)O)NC(=O)CNC(=O)[C@H](CCCNC(=N)N)NC2=O)C(=O)NCCCC[C@@H]2NC(=O)[C@@H](Cc3ccccc3)NC(=O)[C@H](CC(=O)O)NC(=O)CNC(=O)[C@H](CCCNC(=N)N)NC2=O)C(=O)NCCCC[C@@H]2NC(=O)[C@@H](Cc3ccccc3)NC(=O)[C@H](CC(=O)O)NC(=O)CNC(=O)[C@H](CCCNC(=N)N)NC2=O)NC(=O)[C@@H](Cc2ccccc2)NC(=O)[C@H](CC(=O)O)NC(=O)CNC1=O` [indium-111 labelled], the tissue uptake was 2.89 ± 1.36 %ID/g (female athymic nude mice, liver; intravenous, 3 µCi, 4 h, U-87 MG glioma xenograft).
`CCCC[C@H](NC(=O)CNC(=O)CNC(=O)c1ccc(NN)nc1)C(=O)N[C@H]1CC(=O)NCCCC[C@@H](C(N)=O)NC(=O)[C@H](Cc2c[nH]c3ccccc23)NC(=O)[C@H](CCCNC(=N)N)NC(=O)[C@@H](Cc2ccccc2)NC(=O)[C@H](Cc2c[nH]cn2)NC1=O` [technetium-99m labelled] gave an uptake of 0.45 ± 0.29 %ID/g (C57 mouse, B16/F1 melanoma, tumor; 2 h, with: NDP-MSH 6.07 nmol blockade).
For `N=C(N)NCCC[C@@H]1NC(=O)[C@H](CCCCNC(=O)CCOCCOCCOCCOCCNC(=O)CC[C@H](NC(=O)CCOCCOCCOCCOCCNC(=O)CC[C@H](NC(=O)CN2CCN(CC(=O)O)CCN(CC(=O)O)CCN(CC(=O)O)CC2)C(=O)NCCOCCOCCOCCOCCC(=O)N[C@@H](CCC(=O)NCCOCCOCCOCCOCCC(=O)NCCCC[C@@H]2NC(=O)[C@@H](Cc3ccccc3)NC(=O)[C@H](CC(=O)O)NC(=O)CNC(=O)[C@H](CCCNC(=N)N)NC2=O)C(=O)NCCOCCOCCOCCOCCC(=O)NCCCC[C@@H]2NC(=O)[C@@H](Cc3ccccc3)NC(=O)[C@H](CC(=O)O)NC(=O)CNC(=O)[C@H](CCCNC(=N)N)NC2=O)C(=O)NCCOCCOCCOCCOCCC(=O)NCCCC[C@@H]2NC(=O)[C@@H](Cc3ccccc3)NC(=O)[C@H](CC(=O)O)NC(=O)CNC(=O)[C@H](CCCNC(=N)N)NC2=O)NC(=O)[C@@H](Cc2ccccc2)NC(=O)[C@H](CC(=O)O)NC(=O)CNC1=O` [indium-111 labelled], the tissue uptake was 4.06 ± 0.88 %ID/g (female athymic nude mice, lungs; intravenous, 3 µCi, 0.5 h, U-87 MG glioma xenograft).
`CSCC[C@H](NC(=O)[C@H](CC(C)C)NC(=O)[C@H](Cc1c[nH]cn1)NC(=O)CNC(=O)[C@@H](NC(=O)[C@H](C)NC(=O)[C@H](Cc1c[nH]c2ccccc12)NC(=O)[C@H](CCC(N)=O)NC(=O)CCCCCNC(=O)CNC(=O)CNC(=O)CNC(=O)CSC(C)=O)C(C)C)C(N)=O` [technetium-99m labelled] has a tissue uptake of 0.72 ± 0.31 %ID/g (nude mouse, PC-3 xenograft, spleen; 90 min).
With `CN[C@](C)(C[18F])C(=O)O` the tracer uptake was 3.1 %ID/g (DU-145 tumour model; host not given, blood; 15 min, tumour-bearing).
`CC[C@H](C)[C@H](NC(=O)[C@@H](NC(=O)[C@H](CC(=O)O)NC(C)=O)[C@@H](C)O)C(=O)N[C@@H](CCCNC(=N)N)C(=O)N[C@@H](CC(C)C)C(=O)N[C@@H](CC(C)C)C(=O)N[C@@H](Cc1ccccc1)C(=O)N[C@@H](CCC(N)=O)C(=O)N[C@@H](CC(C)C)C(=O)N[C@@H](CCSC)C(=O)N[C@@H](CCCNC(=N)N)C(=O)N1CCC[C@H]1C(=O)N1CCC[C@H]1C(=O)N[C@@H](CC(N)=O)C(=O)N[C@@H](CCSC)C(=O)N[C@H](C(=O)N1CCC[C@H]1C(=O)N[C@@H](C)C(=O)N[C@H](C(=O)N[C@@H](CC(N)=O)C(=O)N[C@@H](C)C(N)=O)C(C)C)[C@@H](C)O` — result for “α4β7+ CCR9+ cells”: 4% (item: HA-19 tetramer; antigen-experienced tetramer+ CD4 T cells, healthy adults, HLA-DRB1*0101; dose not given).
The Vmax/Km of `B1 (SULT2A1)` is reported as 75.9 µL/min/mg (C[C@]12CC[C@H](O)CC1CCC1C2[C@H](O)C(=O)[C@]2(C)[C@@H](c3ccc(=O)oc3)CC[C@]12O; steady-state kinetics; pH 7.4, 37 °C, sulfation by SULT2A1, not purified).
With `CCCNC(=O)[C@H](CC(C)C)NC(=O)[C@H](Cc1c[nH]cn1)NC(=O)CNC(=O)[C@@H](NC(=O)[C@H](C)NC(=O)[C@H](Cc1c[nH]c2ccccc12)NC(=O)[C@H](CCC(N)=O)NC(=O)[C@@H](Cc1ccccc1)NC(=O)CCCCCNC(=O)CN1CCN(CC(=O)O)CCN(CC(=O)O)CCN(CC(=O)O)CC1)C(C)C` [indium-111 labelled] the tissue uptake was 0.11 ± 0.03 %ID/g (Gastrin-releasing peptide receptor (Mus musculus, UniProt P21729); biodistribution; CF-1 mice, stomach; intravenous, 1 h, with: bombesin 100 µg, blocking).
`COc1cccc2c1C(=O)c1c(O)c3c(c(O)c1C2=O)C[C@@](O)(C(=O)CO)C[C@@H]3O[C@H]1C[C@H](NC(=N)CCCSSC[C@@H]2NC(=O)[C@H](CCCNC(=N)N)NC(=O)[C@H](Cc3c[nH]c4ccccc34)NC(=O)[C@H](CCCNC(=N)N)NC(=O)[C@H](Cc3c[nH]c4ccccc34)NC(=O)[C@H](CCCCNC(=O)CCN)NC(=O)[C@H](Cc3c[nH]c4ccccc34)NC(=O)[C@H](CCCNC(=N)N)NC(=O)[C@H](Cc3c[nH]c4ccccc34)NC(=O)[C@H](CCCNC(=N)N)NC2=O)[C@H](O)[C@H](C)O1` has an ROS level of 1.05 fold (C2C12 cells; H2DCFDA flow cytometry; 0.5 mM, 72 h; relative to: control).
`N=C(N)NCCC[C@@H]1NC(=O)[C@H](CCCCNC(=O)CC[C@H](NC(=O)CCOCCOCCOCCOCCNC(=O)CN2CCN(CC(=O)O)CCN(CC(=O)O)CCN(CC(=O)O)CC2)C(=O)NCCCC[C@@H]2NC(=O)[C@@H](Cc3ccccc3)NC(=O)[C@H](CC(=O)O)NC(=O)CNC(=O)[C@H](CCCNC(=N)N)NC2=O)NC(=O)[C@@H](Cc2ccccc2)NC(=O)[C@H](CC(=O)O)NC(=O)CNC1=O` [indium-111 labelled] gave a tissue uptake of 0.56 ± 0.15 %ID/g (female athymic nude mice, heart; intravenous, 3 µCi, 4 h, U-87 MG glioma xenograft).
`CCCC[C@H](NC(=O)CCCCCCCNC(=O)c1ccc(NN)nc1)C(=O)N[C@H]1CC(=O)NCCCC[C@@H](C(N)=O)NC(=O)[C@H](Cc2c[nH]c3ccccc23)NC(=O)[C@H](CCCNC(=N)N)NC(=O)[C@@H](Cc2ccccc2)NC(=O)[C@H](Cc2c[nH]cn2)NC1=O` [technetium-99m labelled] gave a tissue uptake of 0.03 ± 0.01 %ID/g (C57 mouse, B16/F1 melanoma, brain; 2 h, with: NDP-MSH 10 µg (6.07 nmol) co-injected).
With `CC[C@H](C)C(=O)N1CCC(NC(=O)Nc2ccc(OC(F)(F)F)c(F)c2)CC1` the AUC(0-inf) was 3240 ng·h/mL (human, plasma; oral, 8 mg, fasted).

For quick reference, copied from above:
With `CCCNC(=O)[C@H](CC(C)C)NC(=O)[C@H](Cc1c[nH]cn1)NC(=O)CNC(=O)[C@@H](NC(=O)[C@H](C)NC(=O)[C@H](Cc1c[nH]c2ccccc12)NC(=O)[C@H](CCC(N)=O)NC(=O)[C@@H](Cc1ccccc1)NC(=O)CCCCCNC(=O)CN1CCN(CC(=O)O)CCN(CC(=O)O)CCN(CC(=O)O)CC1)C(C)C` [indium-111 labelled] the tissue uptake was 0.11 ± 0.03 %ID/g (Gastrin-releasing peptide receptor (Mus musculus, UniProt P21729); biodistribution; CF-1 mice, stomach; intravenous, 1 h, with: bombesin 100 µg, blocking).
The Vmax/Km of `B1 (SULT2A1)` is reported as 75.9 µL/min/mg (C[C@]12CC[C@H](O)CC1CCC1C2[C@H](O)C(=O)[C@]2(C)[C@@H](c3ccc(=O)oc3)CC[C@]12O; steady-state kinetics; pH 7.4, 37 °C, sulfation by SULT2A1, not purified).
